Measurements gathered from unrelated publications.
Compare with care: the assays were run in different laboratories. Numbers after ± are the reported error.
Sequence of UniProt P10635 (whole entry, looked up): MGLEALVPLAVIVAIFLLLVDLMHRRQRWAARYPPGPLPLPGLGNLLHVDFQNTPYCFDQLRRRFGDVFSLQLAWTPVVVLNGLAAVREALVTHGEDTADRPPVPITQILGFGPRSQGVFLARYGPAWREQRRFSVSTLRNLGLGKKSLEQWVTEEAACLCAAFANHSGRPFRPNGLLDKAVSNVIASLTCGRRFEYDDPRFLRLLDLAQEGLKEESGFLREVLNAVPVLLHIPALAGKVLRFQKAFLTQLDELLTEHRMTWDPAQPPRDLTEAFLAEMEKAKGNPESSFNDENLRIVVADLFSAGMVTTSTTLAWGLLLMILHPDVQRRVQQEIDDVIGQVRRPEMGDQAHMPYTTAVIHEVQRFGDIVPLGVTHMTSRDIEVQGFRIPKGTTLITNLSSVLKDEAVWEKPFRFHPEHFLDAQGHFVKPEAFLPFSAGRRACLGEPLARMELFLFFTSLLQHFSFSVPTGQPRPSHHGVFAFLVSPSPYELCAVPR

Compound = CC(C)(O)c1ncc([S@](N)(=O)=NC(=O)Nc2c3c(cc4c2CCC4)CCC3)s1; assay = measured: musculoskeletal-connective tissue disorders; system = healthy human volunteers; conditions = oral, 10 mg single dose, crystalline suspension; endpoint = subjects with TEAEs; result = 17%
Compound = O=C(O)CCCOc1ccc([18F])cc1-c1cc(-c2ccccc2C(F)(F)F)n(-c2ccccc2)n1; system = mouse, urine; conditions = intravenous, dose not given, 60 min; endpoint = tissue uptake; result = 0.05 ± 0.03 %ID/g
Compound = O=C(NCC1OC2CCC=CCCC2O1)c1ccc(COCCOCCOCC[18F])cc1 (stereo not shown); system = healthy female BALB/c nude mice, bladder; conditions = intravenous, 7.4 MBq per mouse, 120 min; endpoint = tissue uptake; result = 1.9 ± 0.2 %ID/g
Compound = COc1cccc(OC)c1-c1cc(C(=O)NC2(C(=O)O)C3CC4CC(C3)CC2C4)nn1-c1ccc(C(=O)N(C)CCOCCN(C)C(=O)[C@H](CCCCNC(=O)[C@H](CC(C)C)NC(=O)C2OC2C(=O)O)NC(=O)CN2CCN(CC(=O)[O-])CCN(CC(=O)[O-])CCN(CC(=O)[O-])CC2)cc1C(C)C.[177Lu+3] (mixture of isomers); system = mouse, HT-29 xenograft, HT-29 tumour; conditions = 72 h post injection; endpoint = tissue uptake; result = 2.55 %ID/g
Compound = CNC(=O)C1CCCN(C(=O)C2CC3CCC2N3C(=O)[C@@H]2C[C@@H](O)CN2C(=O)NCc2cccc(Cl)c2F)C1 (mixture of isomers); tested on = Cytochrome P450 2D6 (CYP2D6, Homo sapiens, UniProt P10635); assay = enzyme activity, inhibitor, time-dependent inhibition; conditions = 16.7 µM, preincubated without NADPH; endpoint = dextrorphan formation; result = 155 ng/mL
Compound = CC(C)c1noc(C2CCN(c3ncnc(Nc4ccc(OCC[18F])cc4)c3[N+](=O)[O-])CC2)n1; assay = ex vivo biodistribution after PET; system = C57BL/J male mice, intestine; conditions = 60 min; endpoint = tissue uptake; result = 2.11 ± 0.48 %ID/g
Compound = N#C[C@@H]1CC(F)(F)CN1C(=O)CNC(=O)c1ccnc2c(NC(=O)[C@H](CCCCNC(=O)CCOCCOCCOCCOCCOCCOCCNC(=O)CN3CCN(CC(=O)[O-])CCN(CC(=O)[O-])CCN(CC(=O)[O-])CC3)NC(=O)CCCc3ccc(I)cc3)cccc12.[177Lu+3]; system = mouse, U-87 MG tumour xenograft, brain; conditions = 24 h; endpoint = tissue uptake; result = 0.37 ± 0.37 %ID/g
Compound = CC(C)OCCOCc1ccc(OCC(O)CN(N=O)C(C)C)cc1 (stereo not shown); tested on = Salmonella typhimurium; assay = Ames test; system = TA98; conditions = 15.8 µg/plate, 30 % rat S9; scale = reference: solvent control; endpoint = revertant fold increase; result = 1 fold
Compound = CC(C)Cc1ccc(C(C)C(=O)N[C@@H](CCCCNC(=O)CCOCCOCCOCCOCCOCCOCCNC(=O)CN2CCN(CC(=O)[O-])CCN(CC(=O)[O-])CCN(CC(=O)[O-])CC2)C(=O)Nc2cccc3c(C(=O)NCC(=O)N4CC(F)(F)C[C@H]4C#N)ccnc23)cc1.[177Lu+3] (stereo partly shown); system = mouse, U-87 MG tumour xenograft, salivary gland; conditions = 1 h; endpoint = tissue uptake; result = 17.4 ± 0.88 %ID/g
Compound = COc1cccc(OC)c1-c1cc(C(=O)NC2(C(=O)O)C3CC4CC(C3)CC2C4)nn1-c1ccc(C(=O)N(C)CCCN(C)C(=O)[C@H](CCCCNC(=O)[C@H](CC(C)C)NC(=O)C2OC2C(=O)O)NC(=O)CN2CCN(CC(=O)[O-])CCN(CC(=O)[O-])CCN(CC(=O)[O-])CC2)cc1C(C)C.[177Lu+3] (mixture of isomers); system = mouse, HT-29 xenograft, brain; conditions = 72 h post injection; endpoint = tissue uptake; result = 0.014 %ID/g
Compound = COC1CN([C@H]2CC[C@H]([C@@]3(C)Oc4c(Cl)cc(C(=O)NCc5c(SC)cc(C)[nH]c5=O)c(C)c4O3)CC2)C1; assay = RNA-seq, measured: BCL9; system = human, whole blood; conditions = dose not given, 24 h; scale = reference: pretreatment baseline; endpoint = log2 fold change; result = 1.04
Compound = Cc1nc(N)nc2c1C(=O)N[C@@H](c1ccc(F)cc1-c1cccc(OCC[18F])n1)C2; assay = ex vivo biodistribution; system = C57BL/6 mice, lungs; conditions = intravenous, 1 MBq, 30 min; endpoint = tissue uptake; result = 1.06 ± 0.05 %ID
Compound = N#C[C@@H]1CC(F)(F)CN1C(=O)CNC(=O)c1ccnc2c(NC(=O)CCOCCOCCOCCOCCOCCOCCNC(=O)[C@H](CCCCNC(=O)CN3CCN(CC(=O)[O-])CCN(CC(=O)[O-])CCN(CC(=O)[O-])CC3)NC(=O)CCCc3ccc(I)cc3)cccc12.[177Lu+3]; system = mouse, U-87 MG tumour xenograft, lung; conditions = 4 h; endpoint = tissue uptake; result = 2.57 ± 0.39 %ID/g

Excerpt of the above:
Compound = Cc1nc(N)nc2c1C(=O)N[C@@H](c1ccc(F)cc1-c1cccc(OCC[18F])n1)C2; assay = ex vivo biodistribution; system = C57BL/6 mice, lungs; conditions = intravenous, 1 MBq, 30 min; endpoint = tissue uptake; result = 1.06 ± 0.05 %ID
Compound = N#C[C@@H]1CC(F)(F)CN1C(=O)CNC(=O)c1ccnc2c(NC(=O)CCOCCOCCOCCOCCOCCOCCNC(=O)[C@H](CCCCNC(=O)CN3CCN(CC(=O)[O-])CCN(CC(=O)[O-])CCN(CC(=O)[O-])CC3)NC(=O)CCCc3ccc(I)cc3)cccc12.[177Lu+3]; system = mouse, U-87 MG tumour xenograft, lung; conditions = 4 h; endpoint = tissue uptake; result = 2.57 ± 0.39 %ID/g
